Published values of several laboratories.
Numbers after ± are the reported error.
Organism: Staphylococcus aureus

Structure (SMILES) | effect on | technique | strain | tested at | time | inhibition zone [mm]
O=C1c2ccccc2C(=O)c2c1ccc1c2C(C(=O)Nc2ccc(Br)cc2)C(=O)C1c1ccccc1 (stereo not drawn) | microbial growth | disc diffusion | MTCC96 | 100 µg/mL | 24 h | 8
C=C1CC(OC(=O)C(C)(O)CCl)C2C(=C)C(=O)OC2C2C1CC(O)C2(O)CCl (stereo not drawn) |  |  |  | concentration not given |  | 11 ± 0.43
Cc1cc(O)c2c(c1)C(=O)c1cc3oc(=O)cc(-c4ccc(Cl)cc4)c3c(O)c1C2=O | microbial growth | disc diffusion | MTCC96 | 100 µg/disc |  | 8
CCc1ccc(NC(=O)CSc2nc3ccccc3c(=O)n2-c2ccc(S(N)(=O)=O)cc2)cc1 | microbial growth | well diffusion | MRSA | 500 µg/mL | 24 h | 22
Cc1cc(O)cc2c1C(=O)c1c(cc3oc(=O)cc(C)c3c1O)C2=O | microbial growth | disc diffusion | MTCC96 | 100 µg/disc |  | 8
O=C1c2ccccc2C(=O)c2c1ccc1c2C(C(=O)Nc2ccc(Cl)cc2)C(=O)C1c1ccccc1 (stereo not drawn) | microbial growth | disc diffusion | MTCC96 | 100 µg/mL | 24 h | 12
CCOc1ccc(NC(=O)CSc2nc3ccccc3c(=O)n2-c2ccc(S(N)(=O)=O)cc2)cc1 | microbial growth | well diffusion | MRSA | 500 µg/mL | 24 h | 28
O=C1c2ccccc2C(=O)c2c1ccc1c2C(C(=O)Nc2ccccc2Cl)C(=O)C1c1ccccc1 (stereo not drawn) | microbial growth | disc diffusion | MTCC96 | 100 µg/mL | 24 h | 12
NS(=O)(=O)c1ccc(-n2c(SCC(=O)Nc3ccc([N+](=O)[O-])cc3[N+](=O)[O-])nc3ccccc3c2=O)cc1 | microbial growth | well diffusion | ATCC29213 | 500 µg/mL | 24 h | 26
Cc1cc(O)cc2c1C(=O)c1c(cc3oc(=O)cc(-c4ccc(Cl)cc4)c3c1O)C2=O | microbial growth | disc diffusion | MTCC96 | 100 µg/disc |  | 16
Cc1cc([N+](=O)[O-])ccc1NC(=O)CSc1nc2ccccc2c(=O)n1-c1ccc(S(N)(=O)=O)cc1 | microbial growth | well diffusion | ATCC29213 | 500 µg/mL | 24 h | 35
Cc1c2c(cc3oc(=O)cc(-c4ccc(O)cc4)c13)C(=O)c1cccc(O)c1C2=O | microbial growth | disc diffusion | MTCC96 | 100 µg/disc |  | 8

Some of these lines once more:
Structure (SMILES) | effect on | technique | strain | tested at | time | inhibition zone [mm]
Cc1cc([N+](=O)[O-])ccc1NC(=O)CSc1nc2ccccc2c(=O)n1-c1ccc(S(N)(=O)=O)cc1 | microbial growth | well diffusion | ATCC29213 | 500 µg/mL | 24 h | 35
CCOc1ccc(NC(=O)CSc2nc3ccccc3c(=O)n2-c2ccc(S(N)(=O)=O)cc2)cc1 | microbial growth | well diffusion | MRSA | 500 µg/mL | 24 h | 28
